Measurements gathered from unrelated publications.
Every numbered part comes from another study and shows a few of its results, in no order.
UniProt P29317, sequence (whole entry, looked up): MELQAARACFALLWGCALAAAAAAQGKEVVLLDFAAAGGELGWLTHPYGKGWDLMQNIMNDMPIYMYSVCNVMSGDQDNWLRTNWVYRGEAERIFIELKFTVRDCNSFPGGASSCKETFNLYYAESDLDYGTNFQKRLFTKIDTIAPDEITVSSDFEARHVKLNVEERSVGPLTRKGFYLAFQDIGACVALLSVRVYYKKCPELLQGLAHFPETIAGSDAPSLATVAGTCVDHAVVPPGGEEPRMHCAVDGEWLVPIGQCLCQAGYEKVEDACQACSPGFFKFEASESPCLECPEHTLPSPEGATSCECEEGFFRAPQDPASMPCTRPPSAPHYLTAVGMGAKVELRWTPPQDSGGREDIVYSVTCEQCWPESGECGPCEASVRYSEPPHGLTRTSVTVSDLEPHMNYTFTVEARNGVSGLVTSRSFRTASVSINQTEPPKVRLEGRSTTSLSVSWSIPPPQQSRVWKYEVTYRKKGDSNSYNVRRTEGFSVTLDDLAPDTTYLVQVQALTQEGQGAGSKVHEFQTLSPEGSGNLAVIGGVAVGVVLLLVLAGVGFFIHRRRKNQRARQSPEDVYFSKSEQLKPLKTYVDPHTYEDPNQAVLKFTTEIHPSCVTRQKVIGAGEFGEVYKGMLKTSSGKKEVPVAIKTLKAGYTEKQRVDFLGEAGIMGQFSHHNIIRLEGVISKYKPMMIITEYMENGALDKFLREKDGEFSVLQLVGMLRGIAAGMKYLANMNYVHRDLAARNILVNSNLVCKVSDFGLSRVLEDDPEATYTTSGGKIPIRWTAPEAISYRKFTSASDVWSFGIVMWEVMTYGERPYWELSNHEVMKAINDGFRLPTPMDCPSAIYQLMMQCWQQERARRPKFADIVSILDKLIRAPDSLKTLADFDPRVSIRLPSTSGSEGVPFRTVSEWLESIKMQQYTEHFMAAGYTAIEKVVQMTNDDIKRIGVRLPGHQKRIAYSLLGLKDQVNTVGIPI
UniProt P42336, sequence (whole entry, unmodified, looked up): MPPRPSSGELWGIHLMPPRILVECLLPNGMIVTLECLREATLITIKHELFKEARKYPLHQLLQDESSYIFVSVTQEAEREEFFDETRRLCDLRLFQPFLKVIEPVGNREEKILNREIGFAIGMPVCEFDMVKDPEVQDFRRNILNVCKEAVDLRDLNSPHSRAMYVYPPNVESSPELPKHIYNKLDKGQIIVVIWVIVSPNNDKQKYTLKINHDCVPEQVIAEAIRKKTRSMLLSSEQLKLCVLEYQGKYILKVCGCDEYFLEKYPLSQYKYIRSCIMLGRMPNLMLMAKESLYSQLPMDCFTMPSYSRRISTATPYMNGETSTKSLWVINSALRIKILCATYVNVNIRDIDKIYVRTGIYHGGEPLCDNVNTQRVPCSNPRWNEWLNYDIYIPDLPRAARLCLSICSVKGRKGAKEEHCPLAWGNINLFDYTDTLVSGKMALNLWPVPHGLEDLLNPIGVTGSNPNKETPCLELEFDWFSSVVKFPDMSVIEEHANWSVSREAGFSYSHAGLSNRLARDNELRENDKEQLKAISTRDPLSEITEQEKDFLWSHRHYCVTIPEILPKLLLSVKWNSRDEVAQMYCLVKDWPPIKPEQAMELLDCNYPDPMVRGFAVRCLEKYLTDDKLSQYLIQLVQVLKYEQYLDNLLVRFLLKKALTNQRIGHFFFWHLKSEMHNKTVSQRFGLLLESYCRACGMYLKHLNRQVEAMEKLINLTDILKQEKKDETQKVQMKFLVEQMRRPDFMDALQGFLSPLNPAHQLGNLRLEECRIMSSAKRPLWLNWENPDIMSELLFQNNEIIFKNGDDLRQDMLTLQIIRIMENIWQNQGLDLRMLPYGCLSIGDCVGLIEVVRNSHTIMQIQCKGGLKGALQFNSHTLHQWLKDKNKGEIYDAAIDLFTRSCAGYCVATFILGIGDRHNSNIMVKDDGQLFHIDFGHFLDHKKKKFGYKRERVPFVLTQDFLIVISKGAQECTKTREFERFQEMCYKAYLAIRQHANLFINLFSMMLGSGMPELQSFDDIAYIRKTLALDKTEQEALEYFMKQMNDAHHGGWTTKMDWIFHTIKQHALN
UniProt P08069, sequence (whole entry, looked up): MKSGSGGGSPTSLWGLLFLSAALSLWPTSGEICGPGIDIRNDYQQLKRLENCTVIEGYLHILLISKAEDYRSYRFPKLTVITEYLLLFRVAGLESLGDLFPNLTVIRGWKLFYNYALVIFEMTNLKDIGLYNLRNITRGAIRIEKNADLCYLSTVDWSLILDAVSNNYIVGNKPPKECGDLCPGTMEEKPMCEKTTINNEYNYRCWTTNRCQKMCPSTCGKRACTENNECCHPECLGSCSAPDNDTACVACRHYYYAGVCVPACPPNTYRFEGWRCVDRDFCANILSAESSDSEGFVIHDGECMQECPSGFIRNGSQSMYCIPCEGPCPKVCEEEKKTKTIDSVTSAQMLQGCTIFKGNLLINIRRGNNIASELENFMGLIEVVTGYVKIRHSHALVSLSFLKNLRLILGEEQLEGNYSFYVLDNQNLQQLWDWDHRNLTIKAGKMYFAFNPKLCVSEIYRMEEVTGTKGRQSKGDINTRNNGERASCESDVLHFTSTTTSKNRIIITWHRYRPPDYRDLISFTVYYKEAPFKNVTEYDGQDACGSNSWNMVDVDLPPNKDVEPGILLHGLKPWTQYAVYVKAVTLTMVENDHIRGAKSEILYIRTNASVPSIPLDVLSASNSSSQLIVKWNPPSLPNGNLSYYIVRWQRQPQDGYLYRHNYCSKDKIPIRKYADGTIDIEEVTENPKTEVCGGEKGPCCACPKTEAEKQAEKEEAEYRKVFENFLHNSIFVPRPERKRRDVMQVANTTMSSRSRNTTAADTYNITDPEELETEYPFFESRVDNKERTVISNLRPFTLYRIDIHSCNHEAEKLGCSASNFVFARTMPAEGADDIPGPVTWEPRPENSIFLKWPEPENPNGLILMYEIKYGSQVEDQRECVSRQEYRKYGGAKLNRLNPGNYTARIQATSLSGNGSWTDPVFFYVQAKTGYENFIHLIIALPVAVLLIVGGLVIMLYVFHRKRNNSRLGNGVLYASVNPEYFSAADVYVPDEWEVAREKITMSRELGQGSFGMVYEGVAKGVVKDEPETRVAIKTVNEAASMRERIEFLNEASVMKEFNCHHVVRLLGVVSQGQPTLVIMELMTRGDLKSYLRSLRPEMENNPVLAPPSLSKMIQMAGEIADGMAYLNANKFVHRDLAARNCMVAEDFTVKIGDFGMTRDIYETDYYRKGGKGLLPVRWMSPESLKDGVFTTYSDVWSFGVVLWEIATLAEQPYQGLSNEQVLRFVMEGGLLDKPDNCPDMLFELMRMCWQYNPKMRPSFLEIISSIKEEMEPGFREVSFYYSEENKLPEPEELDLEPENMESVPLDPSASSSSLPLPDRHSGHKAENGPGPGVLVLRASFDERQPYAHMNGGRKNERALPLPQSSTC
UniProt P15056, sequence (whole entry, unmodified, looked up): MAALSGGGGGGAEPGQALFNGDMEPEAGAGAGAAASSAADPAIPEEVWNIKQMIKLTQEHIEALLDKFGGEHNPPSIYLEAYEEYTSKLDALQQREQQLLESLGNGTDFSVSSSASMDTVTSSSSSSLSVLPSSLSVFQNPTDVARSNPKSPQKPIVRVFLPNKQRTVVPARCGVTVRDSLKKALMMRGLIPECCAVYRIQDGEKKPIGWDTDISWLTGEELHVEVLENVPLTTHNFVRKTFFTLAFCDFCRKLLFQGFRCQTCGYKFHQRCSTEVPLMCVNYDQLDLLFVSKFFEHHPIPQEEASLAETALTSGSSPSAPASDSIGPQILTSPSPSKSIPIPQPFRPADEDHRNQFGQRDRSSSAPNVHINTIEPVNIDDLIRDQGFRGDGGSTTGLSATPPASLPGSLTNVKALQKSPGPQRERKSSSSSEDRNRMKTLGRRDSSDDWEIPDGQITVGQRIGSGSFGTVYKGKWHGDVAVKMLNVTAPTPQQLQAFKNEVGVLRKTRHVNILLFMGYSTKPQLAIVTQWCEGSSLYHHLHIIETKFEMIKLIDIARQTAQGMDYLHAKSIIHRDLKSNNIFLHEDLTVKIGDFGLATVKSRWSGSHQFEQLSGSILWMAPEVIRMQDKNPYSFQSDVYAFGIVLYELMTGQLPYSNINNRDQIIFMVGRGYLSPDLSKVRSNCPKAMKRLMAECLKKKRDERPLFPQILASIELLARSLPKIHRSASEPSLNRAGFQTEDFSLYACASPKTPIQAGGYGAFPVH
UniProt P25103, sequence (whole entry, looked up): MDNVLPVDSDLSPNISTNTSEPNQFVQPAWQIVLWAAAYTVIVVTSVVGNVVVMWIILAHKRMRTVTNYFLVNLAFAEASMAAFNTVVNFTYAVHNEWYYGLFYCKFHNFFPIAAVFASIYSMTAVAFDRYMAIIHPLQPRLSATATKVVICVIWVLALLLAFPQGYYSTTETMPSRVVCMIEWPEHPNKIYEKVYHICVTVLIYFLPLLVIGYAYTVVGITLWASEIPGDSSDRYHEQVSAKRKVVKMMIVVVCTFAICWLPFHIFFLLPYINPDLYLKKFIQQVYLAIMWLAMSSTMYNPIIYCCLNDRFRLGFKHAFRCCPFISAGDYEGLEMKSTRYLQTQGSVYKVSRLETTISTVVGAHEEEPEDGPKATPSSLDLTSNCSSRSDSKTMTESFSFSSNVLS

Block 1
SMILES: NC(N)=NC(=O)c1nc(Cl)c(N2CCCCCC2)nc1N
Read-out: β-arrestin recruitment
Mode: agonist
Method: PRESTO-Tango
Tested at: 10 µM
Reference: untreated
target	fold over basal
NPFFR1 (Homo sapiens, UniProt Q9GZQ6)	1.52
LPAR1 (Homo sapiens, UniProt Q92633)	1.17
BRS3 (Homo sapiens, UniProt P32247)	3.21
TACR2 (Homo sapiens, UniProt P21452)	0.67 fold
CHRM2 (Homo sapiens, UniProt P08172)	0.94
DRD2 (Homo sapiens, UniProt P14416)	1.19
GIPR (Homo sapiens, UniProt P48546)	0.47 fold
CCR7 (Homo sapiens, UniProt P32248)	0.95
G-protein coupled receptor 62 (GPR62, Homo sapiens, UniProt Q9BZJ7)	1.26
TACR1 (Homo sapiens, UniProt P25103)	0.75 fold
NPY1R (Homo sapiens, UniProt P25929)	0.79
12-(S)-hydroxy-5,8,10,14-eicosatetraenoic acid receptor (GPR31, Homo sapiens, UniProt O00270)	0.73
Relaxin receptor 2 (RXFP2, Homo sapiens, UniProt Q8WXD0)	0.7
CCR3 (Homo sapiens, UniProt P51677)	1.37
HCAR3 (Homo sapiens, UniProt P49019)	0.75 fold
HTR2A (Homo sapiens, UniProt P28223)	0.34
GPBAR1 (Homo sapiens, UniProt Q8TDU6)	0.91 fold
P2Y purinoceptor 11 (P2RY11, Homo sapiens, UniProt Q96G91)	0.85
NPBWR1 (Homo sapiens, UniProt P48145)	1.06
OPRD1 (Homo sapiens, UniProt P41143)	5.77
CXCR1 (Homo sapiens, UniProt P25024)	1

Block 2
Target: Calcium/calmodulin-dependent protein kinase type II subunit alpha (CAMK2A, Homo sapiens, UniProt Q9UQM7)
UniProt Q9UQM7, sequence (whole entry, looked up): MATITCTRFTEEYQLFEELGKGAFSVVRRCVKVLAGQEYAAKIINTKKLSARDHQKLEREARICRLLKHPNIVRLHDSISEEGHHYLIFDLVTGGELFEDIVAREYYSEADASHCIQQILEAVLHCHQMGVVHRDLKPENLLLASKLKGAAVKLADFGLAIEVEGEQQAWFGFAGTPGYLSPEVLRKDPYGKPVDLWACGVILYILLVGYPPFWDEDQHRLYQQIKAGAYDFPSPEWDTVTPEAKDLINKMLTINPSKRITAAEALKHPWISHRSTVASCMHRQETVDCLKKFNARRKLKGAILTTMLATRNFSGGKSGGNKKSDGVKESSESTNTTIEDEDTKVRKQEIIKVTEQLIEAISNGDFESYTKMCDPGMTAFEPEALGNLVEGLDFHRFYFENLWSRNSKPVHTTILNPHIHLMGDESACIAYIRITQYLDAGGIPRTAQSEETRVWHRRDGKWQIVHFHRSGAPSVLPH
Read-out: enzyme activity
Mode: inhibitor
Tested at: 10 µM
SMILES	inhibition
Cc1coc2c1C(=O)C(=O)c1c-2ccc2c(C)cccc12	11%
O=C1C=CCO1	-4%
CC(=O)OC/C=C(C)/C=C/C=C(C)/C=C/C1=C(C)CCCC1(C)C	-1%
CC1=C[C@]23C(=O)[C@H](C=C4COC(C)(C)OC4C24OC(C)(C)OC14)[C@@H]1[C@H](CC3C)C1(C)C (stereo partly drawn)	14%
Cc1cc2cc(Oc3ccnc(Nc4cccc(CS(=O)(=O)NCCN(C)C)c4)n3)ccc2[nH]1	-9%
COc1cc(CCC(O)CCCCc2ccccc2)ccc1O (stereo not drawn)	6%
O=c1[nH]c(=O)c2ncn([C@@H]3O[C@H](CO)[C@@H](O)[C@H]3O)c2[nH]1	-32%
O=c1c2ccccc2nc2n1CC[C@@H]2O	39%
CCCCCCCCCCCCCC(=O)OC	29%
COc1c(O[C@@H]2O[C@H](CO)[C@@H](O)[C@H](O)[C@H]2O)cc2oc(-c3ccc(O)cc3)cc(=O)c2c1O	-8%
O=C(O)c1ccc(C(=O)O)cc1	-24%
O=C1CN(/N=C/c2ccc([N+](=O)[O-])o2)C(=O)N1	-14%
COc1ccc(C[C@H]2COC(=O)[C@]2(O)Cc2ccc(O[C@@H]3O[C@H](CO)[C@@H](O)[C@H](O)[C@H]3O)c(OC)c2)cc1OC	36%
OC[C@H]1OC(O[C@H]2[C@H](O)[C@@H](CO)OC(O[C@H]3[C@H](O)[C@@H](CO)OC(O)[C@@H]3O)[C@@H]2O)[C@H](O)[C@@H](O)[C@@H]1O (stereo partly drawn)	24%
O=c1c(O)c(-c2ccccc2)oc2cc(O)cc(O)c12	-22%
CN1C(C(=O)Nc2ccccn2)=C(O)c2sc(Cl)cc2S1(=O)=O	20%
C[C@H](O)[C@@H](O)[C@@H](O)[C@H](O)CO	0%
COC[C@@H]1Cc2cc(OC)c3c(c2[C@H](c2ccc(OC)c(OC)c2)[C@H]1COC)OCO3	-23%
CC(C)=CCc1c(O)cc(O)c2c(=O)c(O[C@@H]3O[C@@H](C)[C@H](O)[C@@H](O)[C@H]3O)c(-c3ccc(O)cc3)oc12	3%
COc1ccc(-c2cc(=O)c3c(OC)c(OC)c(OC)c(OC)c3o2)cc1	-38%
CC(=O)Oc1cc(C(C)C)c(OCCN(C)C)cc1C	-4%
CC1(C)[C@@H]2CC[C@@]1(C)C(=O)C2	2%

Block 3
Compound: Clc1ccc(Nc2nnc(Cc3ccncc3)c3ccccc23)cc1
Read-out: enzyme activity
Mode: inhibitor
Tested at: 0.5 µM
Reference: control
target	remaining activity [%]
MUSK (Homo sapiens, UniProt O15146)	105
CAMKK1 (Homo sapiens, UniProt Q8N5S9)	97.2
IGF1R (Homo sapiens, UniProt P08069)	108
MAP3K20 (Homo sapiens, UniProt Q9NYL2)	90.3
PAK6 (Homo sapiens, UniProt Q9NQU5)	107
SRPK1 (Homo sapiens, UniProt Q96SB4)	98.5
PRKCQ (Homo sapiens, UniProt Q04759)	73.5
CLK1 (Homo sapiens, UniProt P49759)	110
SIK2 (Homo sapiens, UniProt Q9H0K1)	97.9
CSNK1D (Homo sapiens, UniProt P48730)	92.2
PRKCZ (Homo sapiens, UniProt Q05513)	69.5
TEC (Homo sapiens, UniProt P42680)	137
PAK1 (Homo sapiens, UniProt Q13153)	116
CSNK1E (Homo sapiens, UniProt P49674)	99.1
JAK1 (Homo sapiens, UniProt P23458)	107
TYRO3 (Homo sapiens, UniProt Q06418)	98.2
CAMK1 (Homo sapiens, UniProt Q14012)	100
FLT1 (Homo sapiens, UniProt P17948)	59.4
EPHA6 (Homo sapiens, UniProt Q9UF33)	101
Cyclin-dependent kinase 2, with cyclin E (CDK2, Homo sapiens, UniProt P24941)	94.5
EPHA2 (Homo sapiens, UniProt P29317)	92.5
SGK2 (Homo sapiens, UniProt Q9HBY8)	104

Block 4
Compound: Cc1c(C(=O)O)cc(-c2ccc(C3CCNCC3)cc2)c2ccc(-c3ccc(C(F)(F)F)cc3)cc12
Method: competition with immobilised ligand
Tested at: 1 µM
target	read-out	remaining binding
TBK1 (Homo sapiens, UniProt Q9UHD2)	binding	73%
OXSR1 (Homo sapiens, UniProt O95747)	binding	100%
EPHA2 (Homo sapiens, UniProt P29317)	cell-free assay	100%
PIK3CA (Homo sapiens, UniProt P42336, E545A)	cell-free assay	100%
PRKD2 (Homo sapiens, UniProt Q9BZL6)	binding	100%
HUNK (Homo sapiens, UniProt P57058)	binding	100%
Receptor-type tyrosine-protein kinase FLT3, autoinhibited (FLT3, Homo sapiens, UniProt P36888)	binding	100%
FLT4 (Homo sapiens, UniProt P35916)	cell-free assay	100%
PIK3CA (Homo sapiens, UniProt P42336, H1047L)	cell-free assay	100%
NEK6 (Homo sapiens, UniProt Q9HC98)	binding	100%
GAK (Homo sapiens, UniProt O14976)	binding	100%
PRKACB (Homo sapiens, UniProt P22694)	cell-free assay	84%
BRAF (Homo sapiens, UniProt P15056)	cell-free assay	100%
NUAK2 (Homo sapiens, UniProt Q9H093)	binding	100%
MUSK (Homo sapiens, UniProt O15146)	binding	100%
MELK (Homo sapiens, UniProt Q14680)	binding	100%
RIPK4 (Homo sapiens, UniProt P57078)	binding	97%
BRAF (Homo sapiens, UniProt P15056, V600E)	cell-free assay	100%
PIP5K1A (Homo sapiens, UniProt Q99755)	cell-free assay	70%
PRPF4B (Homo sapiens, UniProt Q13523)	cell-free assay	100%
STK32C (Homo sapiens, UniProt Q86UX6)	binding	100%
FES (Homo sapiens, UniProt P07332)	cell-free assay	100%
ALK (Homo sapiens, UniProt Q9UM73)	cell-free assay	100%
IGF1R (Homo sapiens, UniProt P08069)	cell-free assay	90%
FYN (Homo sapiens, UniProt P06241)	binding	100%
